# Published values collected from several papers.
# A part holds a random share of what one study measured. Substitutions count along the parent as printed.

# Block 1
# Target: Prothrombin, mature alpha-thrombin (F2, Homo sapiens, UniProt P00734)
# Technique: aptamer microarray, sandwich
# Form: DNA with 2'F-ANA
# Sample: in vitro
# Tested at: 200 nM
# Notes: whole 15-mer aptamer, many near background
# Together with: Cy3 exosite-II aptamer, 400 nM
# Direction: higher = stronger binding
# Sequence: GGTTGGTGTGGTTGG
Modification,mean fluorescence intensity [a.u.]
2'F-ANA at 1 2 5 6 9 11 12,91.7
2'F-ANA at 1 4 5 9 12 13,65.4
2'F-ANA at 1 5 7 8 9 11 12 14,46.8
2'F-ANA at 1 3 5 8 10 12,49.2
2'F-ANA at 2 3 4 5 9 11 13,61.6
2'F-ANA at 1 2 4 12 13 14,55.1
2'F-ANA at 1 8 9,217
2'F-ANA at 1 2 3 6 7 9 10 11 12 13 15,114
2'F-ANA at 1 2 3 5 6 8 9 12 14 15,49.1
2'F-ANA at 2 3 4 7 9 10 11 12 13 15,225
2'F-ANA at 1 4 6 9 10 11 12 13 14,48.3
2'F-ANA at 2 3 4 6 8 10 11,197
2'F-ANA at 1 4 6 7 11 14,50
2'F-ANA at 2 3 4 8 9 10 12 13 15,262
2'F-ANA at 1 3 4 5 6 10 11 12 13 14 15,60.4
2'F-ANA at 1 3 4 5 6 7 13 14 15,68.2
2'F-ANA at 2 3 6 7 8 9 10 11 14 15,215
2'F-ANA at 2 3 4 5 6 9 10 11 12 14,49.6
2'F-ANA at 1 2 3 5 8 9 10 14 15,51.2
2'F-ANA at 1 2 3 4 6 10 11 13 15,54.8
2'F-ANA at 2 3 6 9 10 12 15,359
2'F-ANA at 6 7 9 11 12 13,520
2'F-ANA at 1 2 6 7 11 13 14,48.3
2'F-ANA at 3 6 9 11 14,460
2'F-ANA at 4 5 6 9 10,44.6

# Block 2
# Target: Sal-like protein 4, full length isoform B (SALL4, Homo sapiens, UniProt Q9UJQ4-2, residues 1-616)
# Technique: universal PBM
# Form: double-stranded DNA, one strand shown
# Sample: in vitro
# Tested at: not given
# Notes: 8-mer, flanks averaged, mean of replicates
# Direction: higher = stronger binding
Sequence,E-score
CCTATAAG,-0.0503
CTCAGCAC,-0.213
AGATCCAT,0.0763
AACACATC,0.132
GTATTACA,0.303
GATGCGGA,-0.26
CCCTGTAA,0.0182
AATAACAC,0.204
TCGCTGCA,-0.116
ACCCTTCG,-0.204
GTGCCCAA,-0.0933
AATCCTCA,0.0518
GTAATCTA,0.298
ACATAGGG,-0.0721
ATCAAGTG,0.0927
CAACGGAG,-0.241
ATCACCTC,0.0431
ACGTAGCG,-0.134
CGTTCGAC,-0.161
CATCTATC,0.104
CGCGCAAG,-0.155
AAAGGACT,-0.0235
CAGTCGTA,-0.0148
GCGTGAAC,-0.135
ATGCTAGA,0.164

# Block 3
# Target: RNA binding protein fox-1 homolog 2, RRM domain, GST-SBP tag (RBFOX2, Homo sapiens, UniProt O43251-10, residues 100-194)
# Technique: RNA Bind-n-Seq
# Form: RNA
# Sample: in vitro
# Tested at: 365 nM
# Notes: natural RNA segment, single round, ends assumed
# Baseline: no-protein control
# Direction: higher = stronger binding
# All sequences stand within: GGGAGUUCUACAGUCCGACGAUC … UGGAAUUCUCGGGUGCCAA
Sequence,RBNS enrichment (R)
UACAAAAAUAAAAAGCGGGAAUUUUCCCUUCGCUUGAAUAUUAUCCCUGUAUAUUGCAUGAAUGAGAGAUUUCCCAUAUUUCCAUCAGAGUAAUAAAUAUACUUGCUUUA,0.621
UAGUGAUUGCAUCAAUUAUAACAUUUAUCAUUAGCAGUUGAGAGCACAUGUUCAUAUAGCAAUGUAAAAACCUACUAAUGAGUAUUUGGUAAUUUCCCAUUAGCAUAAUU,1.02
UUUAUUUUAAGGGUUAAAUCACUUUUGCUUGUGUUUAUUACUGCUUGAGGUUGAGCCUUUUUGAGUAUUUAAGAUAUAUAUACCAACGAAACUAUUCUCGCAAGGAAAAC,0.502
AUAAGUAGGCAGGUAAUCUUCAUGGGGACUGAGGUGAUUUUCUUGUACGUUUUACGUUUUCCUAUUUACCAGUGGGGUUUUGCUGUAGCCUGUGUAACUCUGCUCUGAGG,1.13
UUCAGUUUCCUGUAUAUUUGCUUACUGUGCCGUUUUAGUGGUUUUAGGAUAAAAAUGCACUGGUGAAGCAAAUGUAGUGCCAACAGAAGGUGAUUUUCCAGUUGUAAAUG,0.654
GCAACAAAUAUUUAUACAUACAAGAUGCUAGUUCAUUUGAAUAUUUCUCCCAACUUAUCCAAGGAUCUCCAGCUCUAACAAAAUGGUUUAUUUUUAUUUAAAUGUCAAUA,0.515
CAUCAACAUGGCACCCUGCCUCAUUGGCUAAGUGUUAAGUGAUGGGCUUAUUCUUGAAAGCAGCUUGGGGUGUCUUUUUAAAAUGUAGAAAAAAAUGUAAAGUGACAGUU,0.433
CUAAUCUAUACACAGUCUAUCCAUAGAUGCAUAUUUUACCCCAACUGGCUAGAGAUUUAUUUGUUGUAAAUGCUGUAUAGAUUUUGGGUUUUUUUUUUUUGUUCUUCCUC,0.751
AGGUGGAAAAGUAGCAGCUGUAUCGGGCUUCCUCAUCCUGCCUGUUCCCCCACACCUGCCAGGAUAUGGACAUCUUGGGAUAUCUCUUUACCACUGAAGUAGAAUUGAUU,0.723
GGGGCCGCCGCCUCUUUCAAGCAGUCGUGCCUGUGUCCAUGCGCUCAGGGCCAUGCUGAGGCCUGGGCCGCUGCCACGUUGGAGAAGCCCGUGUGAGAAGUGAAUGCUGG,4.68
UCCCCCGCACAGGUCCUGCUUCACUCACAUCCUCACCCGCUGCCAAGGUGGCGGUUUGUGCUUGCAGGGCAGCACUGCCCACCACCUGCCAGGGAGGAGCCUGAGCAGCU,0.37
UUGCAGAUUUCAGUCGUCGUGUUACUUGUGCACAAACAGAAGCUGGGUCUUACCCGCAGCACGAGUGUCUCGGGCUGCCCGGAGUCGCCCGGGAGCAGGUGCUGCAGCCA,0.599

# Block 4
# Target: RING finger protein unkempt homolog, zinc fingers 1-6, GST-SBP tag (UNK, Homo sapiens, UniProt Q9C0B0, residues 30-357)
# Technique: RNA Bind-n-Seq
# Form: RNA
# Sample: in vitro
# Tested at: not given
# Notes: RNA with constant flanks, human and mouse sites, ends assumed
# Baseline: input RNA pool
# Direction: higher = stronger binding
# All sequences stand within: GGGAGUUCUACAGUCCGACGAUC … CAACAGAGGAUUGAGCAUCA
# Construct (chain): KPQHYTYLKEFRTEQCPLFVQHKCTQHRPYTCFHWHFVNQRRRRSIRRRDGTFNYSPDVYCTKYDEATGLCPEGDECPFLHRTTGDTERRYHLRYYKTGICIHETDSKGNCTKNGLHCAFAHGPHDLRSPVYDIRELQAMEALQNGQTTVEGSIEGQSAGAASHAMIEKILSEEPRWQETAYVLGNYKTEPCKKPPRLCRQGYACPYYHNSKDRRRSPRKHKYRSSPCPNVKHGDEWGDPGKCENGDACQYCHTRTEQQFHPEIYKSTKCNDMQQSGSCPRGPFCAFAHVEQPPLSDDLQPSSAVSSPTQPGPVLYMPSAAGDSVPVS
Sequence,bound/input enrichment [ratio]
GAUGUUAGAGAUGUGGUUGGGCGGCCUAUAGAUCCAAGAGAAGGUCCUGGACGGCCUCCACUAGAUGGUAGGGAUCAUUUUGGAAGACCUCCUGUAGAUAUAAGAGAGAAUCUUGUGAGG,3.88
GGAAUGCAGCCUGCUCACAGCGCCCUGAUGCCCUCCGUGACACACAUACCCACCCCUCCACAUAGAACACAAGUCCCCCGGUGCAUGCACCAUGCCCACUGCCUUUCUUUGCACUGAUGU,0.61
UAAAGCAGGUUCAAAAACACAUGAACUGCAGAUGCCAUAGGCCUCAAAUCAGCUGUAAUUCUAGGAGACACGUGUUGAUCUAGUUAUCUAACAUUGUUGUUAUAAGAAAAUGAGUUUACU,0.19
AUAUCCUUGUCAGGUGAGAACAGGAAGGCGCCUCUCAGAGUGGCCCUCAGAACUGUCUGAAUGUCAACAAGAGCACUGUUACGUGUGCACCGCAGAAGAGGAGCCUCUGGAAAUUGCUCG,0.12
UCUGCUCGAAGACUGGACCCAGAGUACUGGAAGACCAUCCUGAGUUGUGUAUAUGUUUUUAUAGUAUUUGGGUUUACGUCUUUCAUUAUGGUUAUUGUUCAUGAGCGUGUGCCUGACAUG,0.238
UUGUGGGGAUGAGGGUGGGAUGGGAAAGGGAUGUAUGGAUGUUAUUGGCAUUUUUAAGUGUUUAGAGUUUUUUGGGGUUUGGGGUGGUUUUUUUUCCUUGUUUUCCUUUUUUCCUUUUAA,38.2
GAAAAAUACUUCCAAUUCCAAGAAGAGGGCAAGGAAGGAGAGAACAGGGCAGUUAUCCAUUAUAGGGAUGAUGAGACCAUGUAUGUUGAGUCUAAAAAGGACAGAGUCACAGUAGUCUUC,0.423
UUUAACUCUCUUCUCCUCAGACACAGUGGCACUGCUUAUCUCCAAAUGGUGUGAUCGUCUCCUCAGUGAGCGGCGGCUCCCACUGCGCUGUGGGUAGUGUGUGACUGUGGCUGUACUGUA,0.175
AGCACAACACCAGCUAAGCUCAGGAACCCUUGCACAAGUGAACAGAACUGCACCAGCCCAUUUAGCUACAAAAAUGUGCUCAGUCUUACUAAUAAAGGAGAAGUAUUUAAUGAACUUGUU,1.8
CUUUGCGAGCAGAAACGGGAGACCUGUGCAGAUGGUGAGGCAGCAGGCUGCACUAUCAACAAUAGCCUAUCCAACAUCCAGUGGCUUCGAAAGAUGAGUUCUGAUGGACUGGGCUCCCGC,0.0772
ACCUGAUCCUUUACCCGAAAAAAUAAGAGGAUAUCAAGAGGCUGAAAGAAUAUUUUCAGAAGCAUAGACUCUUCGGAGGAUACUGCAGUUCAUGAGAUCUCAAGGUACAUGUGACAACGC,0.14

# Block 5
# Target: Histone acetyltransferase KAT6A, winged helix 1, GST fusion (KAT6A, Homo sapiens, UniProt Q92794, residues 1-85)
# Technique: protein binding microarray
# Form: double-stranded DNA, one strand shown
# Sample: in vitro
# Tested at: not given
# Notes: 8-mer, flanks averaged, mean of 2 arrays, mostly near background
# Baseline: not given
# Direction: higher = stronger binding
# Target sequence (chain): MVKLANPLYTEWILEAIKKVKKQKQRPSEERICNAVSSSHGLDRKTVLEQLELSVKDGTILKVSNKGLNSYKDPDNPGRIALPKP
Sequence,E-score
CCAGTGAG,-0.197
GGGATCCC,0.166
CATAAAGC,-0.0785
ATACGTAG,-0.0224
CTAGTAAA,0.0695
CGAGGAAC,0.148
GGAGCGCC,0.244
AACGCACC,0.143
CCTAAGAA,-0.174
ACCCTCTC,-0.19
CAGGGCCG,0.312
GTTGGGTA,-0.12
ACACGAGG,-0.125
ACGGACCC,0.235
GACTTGAC,-0.212
CAAACTCC,0.0242
ATGAGTCC,0.0849
CATTACGG,0.248

# Block 6
# Target: CCNF, cyclin fold, Cln2 fusion (human)
# Technique: yeast growth competition, sequencing
# Sample: yeast
# Notes: strong parent motif
# Baseline: not given
# Direction: higher = stronger binding
# Starting sequence: HIRA docking peptide (human); SLSKRKLELEVET
Change,normalised enrichment score
S1A,2.51
L9A,0.0148
L2A,1.53
E10A,0.807
K4A,1.01
R5K L9F,3.63
E8A,1.62
L9F,6.03
S3A,4.42
R5A L7A,-0.0933

# Excerpt of the above (block 2):
Sequence,E-score
ACATAGGG,-0.0721
ATCAAGTG,0.0927
CAACGGAG,-0.241
ATCACCTC,0.0431
ACGTAGCG,-0.134
CGTTCGAC,-0.161
CATCTATC,0.104
CGCGCAAG,-0.155
AAAGGACT,-0.0235
